Published values pooled from the literature.
Compare with care: the assays were run in different laboratories. “And” joins repeats or separate records; there may be more than shown. ± gives the spread as reported.
Sequence of UniProt P49327 (whole entry, looked up): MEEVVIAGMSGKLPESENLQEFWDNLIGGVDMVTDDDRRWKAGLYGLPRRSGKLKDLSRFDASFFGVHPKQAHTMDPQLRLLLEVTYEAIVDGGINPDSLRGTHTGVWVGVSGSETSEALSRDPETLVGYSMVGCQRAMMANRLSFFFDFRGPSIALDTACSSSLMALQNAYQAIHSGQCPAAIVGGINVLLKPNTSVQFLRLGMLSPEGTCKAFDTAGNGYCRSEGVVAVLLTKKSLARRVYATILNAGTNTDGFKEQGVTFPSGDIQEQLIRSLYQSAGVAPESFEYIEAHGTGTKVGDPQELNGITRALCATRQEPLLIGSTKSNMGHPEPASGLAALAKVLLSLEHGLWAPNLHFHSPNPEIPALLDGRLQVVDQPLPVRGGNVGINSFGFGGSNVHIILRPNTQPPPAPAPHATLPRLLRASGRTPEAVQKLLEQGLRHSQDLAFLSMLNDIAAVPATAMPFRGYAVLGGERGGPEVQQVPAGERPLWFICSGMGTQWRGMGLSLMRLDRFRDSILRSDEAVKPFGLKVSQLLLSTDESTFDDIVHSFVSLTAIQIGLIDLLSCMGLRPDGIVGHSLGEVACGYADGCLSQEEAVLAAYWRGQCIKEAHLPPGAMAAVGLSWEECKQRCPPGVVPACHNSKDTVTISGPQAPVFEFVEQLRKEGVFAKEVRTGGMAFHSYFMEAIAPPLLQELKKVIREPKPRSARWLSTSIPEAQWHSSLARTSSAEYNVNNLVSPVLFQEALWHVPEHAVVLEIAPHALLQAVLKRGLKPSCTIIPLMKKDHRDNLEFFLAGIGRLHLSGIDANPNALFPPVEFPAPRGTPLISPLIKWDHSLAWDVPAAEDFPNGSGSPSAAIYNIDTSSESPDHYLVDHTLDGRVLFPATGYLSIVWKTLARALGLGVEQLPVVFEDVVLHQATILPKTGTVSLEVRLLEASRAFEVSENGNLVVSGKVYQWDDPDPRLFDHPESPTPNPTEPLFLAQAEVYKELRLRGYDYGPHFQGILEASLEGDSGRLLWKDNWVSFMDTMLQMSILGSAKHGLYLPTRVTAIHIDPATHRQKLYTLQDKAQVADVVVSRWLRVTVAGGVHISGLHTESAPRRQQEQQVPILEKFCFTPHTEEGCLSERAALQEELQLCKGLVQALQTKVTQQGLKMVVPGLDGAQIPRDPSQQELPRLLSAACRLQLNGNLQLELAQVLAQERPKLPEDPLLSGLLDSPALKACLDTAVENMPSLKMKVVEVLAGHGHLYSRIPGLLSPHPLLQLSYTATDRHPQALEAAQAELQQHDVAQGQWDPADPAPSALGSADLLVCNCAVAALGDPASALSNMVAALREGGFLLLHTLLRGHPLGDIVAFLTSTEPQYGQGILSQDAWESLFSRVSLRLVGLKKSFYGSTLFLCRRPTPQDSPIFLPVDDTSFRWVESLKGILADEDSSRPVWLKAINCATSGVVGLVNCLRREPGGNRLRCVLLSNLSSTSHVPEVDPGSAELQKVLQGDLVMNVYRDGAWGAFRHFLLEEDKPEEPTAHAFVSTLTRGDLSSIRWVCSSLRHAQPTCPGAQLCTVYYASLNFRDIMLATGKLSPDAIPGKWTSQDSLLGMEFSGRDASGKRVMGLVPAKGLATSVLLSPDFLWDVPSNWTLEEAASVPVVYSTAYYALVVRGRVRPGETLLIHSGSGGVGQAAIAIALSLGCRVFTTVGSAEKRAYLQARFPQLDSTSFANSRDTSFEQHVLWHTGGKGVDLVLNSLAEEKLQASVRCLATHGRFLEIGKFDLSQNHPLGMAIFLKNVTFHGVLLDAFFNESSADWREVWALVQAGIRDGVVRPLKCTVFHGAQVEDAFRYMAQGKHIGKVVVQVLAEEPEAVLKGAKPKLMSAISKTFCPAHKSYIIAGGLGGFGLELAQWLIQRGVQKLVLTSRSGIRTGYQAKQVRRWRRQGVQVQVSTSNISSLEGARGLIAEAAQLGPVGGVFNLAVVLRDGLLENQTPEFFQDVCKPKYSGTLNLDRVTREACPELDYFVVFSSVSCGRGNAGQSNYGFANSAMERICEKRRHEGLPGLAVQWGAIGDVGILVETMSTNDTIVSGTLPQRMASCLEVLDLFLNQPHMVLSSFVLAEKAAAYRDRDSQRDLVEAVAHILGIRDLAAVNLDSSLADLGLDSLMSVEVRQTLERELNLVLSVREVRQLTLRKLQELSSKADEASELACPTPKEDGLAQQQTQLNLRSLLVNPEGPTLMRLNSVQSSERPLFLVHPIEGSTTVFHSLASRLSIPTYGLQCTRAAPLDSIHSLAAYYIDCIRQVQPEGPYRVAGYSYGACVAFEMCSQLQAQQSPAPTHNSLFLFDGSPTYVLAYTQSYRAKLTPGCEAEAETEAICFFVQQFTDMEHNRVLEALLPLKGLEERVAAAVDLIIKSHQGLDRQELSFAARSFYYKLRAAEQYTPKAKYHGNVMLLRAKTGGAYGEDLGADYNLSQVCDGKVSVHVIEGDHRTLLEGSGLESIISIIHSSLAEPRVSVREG
Sequence of UniProt Q9UHI6 (whole entry, looked up): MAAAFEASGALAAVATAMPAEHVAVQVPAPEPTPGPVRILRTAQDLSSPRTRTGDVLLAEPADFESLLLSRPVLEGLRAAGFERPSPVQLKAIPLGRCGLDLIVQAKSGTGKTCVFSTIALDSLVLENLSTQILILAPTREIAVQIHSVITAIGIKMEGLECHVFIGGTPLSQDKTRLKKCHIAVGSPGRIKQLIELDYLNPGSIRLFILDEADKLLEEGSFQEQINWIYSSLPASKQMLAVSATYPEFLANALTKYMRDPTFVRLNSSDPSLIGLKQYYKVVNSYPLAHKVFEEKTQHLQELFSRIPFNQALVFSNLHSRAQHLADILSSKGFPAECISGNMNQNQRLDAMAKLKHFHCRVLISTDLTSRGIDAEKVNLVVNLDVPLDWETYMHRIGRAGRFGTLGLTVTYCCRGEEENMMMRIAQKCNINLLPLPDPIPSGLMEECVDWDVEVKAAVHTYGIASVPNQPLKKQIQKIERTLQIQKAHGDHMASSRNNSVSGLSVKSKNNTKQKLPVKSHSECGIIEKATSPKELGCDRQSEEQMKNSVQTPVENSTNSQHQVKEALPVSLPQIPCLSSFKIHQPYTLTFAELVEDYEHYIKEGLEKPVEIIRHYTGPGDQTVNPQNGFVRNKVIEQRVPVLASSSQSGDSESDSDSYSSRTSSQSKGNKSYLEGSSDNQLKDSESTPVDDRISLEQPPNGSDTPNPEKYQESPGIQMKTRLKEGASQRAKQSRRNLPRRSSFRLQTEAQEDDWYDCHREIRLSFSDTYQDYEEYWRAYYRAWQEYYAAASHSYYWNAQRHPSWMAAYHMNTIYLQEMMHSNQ

CCc1ccc(Sc2cc(C(=O)NCCCN3CCC(C)CC3)c3ccccc3n2)cc1 — cytotoxicity efficacy (Vero-E6; CellTiter-Glo ATP; concentration not given, 72 h, retest 8-point duplicates; relative to: DMSO 0%, hyamine -100%, more negative, more toxic): -31.4%
CC(C)C[C@@H](NC(=O)[C@H](N)CCCCN)C(=O)N1CCC[C@@H]1C(=O)N[C@H](Cc1ccccc1)C(=O)N[C@H](Cc1ccccc1)C(N)=O — viability (NGF-differentiated PC-12 neurons; 160 µM, 24 h; relative to: untreated): 100%
CN1CC[C@@H](c2c(O)cc(O)c3c(=O)cc(-c4ccc(C(F)(F)F)cc4Cl)oc23)[C@@H]1CO — patients with adverse event (refers to: Hypertension; B-cell malignancies; oral, 100 mg, intermittent dosing): 0%
COc1ccc(N2CCN(CCCNC(=O)c3cc(Nc4ccc(OC)cc4OC)nc4ccccc34)CC2)cc1 — cytotoxicity efficacy (Vero-E6; CellTiter-Glo ATP; concentration not given, 72 h, retest 8-point duplicates; relative to: DMSO 0%, hyamine -100%, more negative, more toxic): -22.6%
C[C@@H](O)[C@@H](CO)NC(=O)[C@@H](CCCNC(=N)N)NC(=O)[C@@H]1CCCN1C(=O)[C@@H]1CSSC[C@H](NC(=O)[C@H](Cc2ccccc2)NC(=O)CN2CCN(CC(=O)O)CCN(CC(=O)O)CCN(CC(=O)O)CC2)C(=O)N[C@@H](Cc2ccc(O)cc2)C(=O)N[C@@H](Cc2ccccc2)C(=O)N[C@@H](CCC(N)=O)C(=O)N[C@@H](CC(N)=O)C(=O)N1 [gallium-68 labelled] — tissue uptake (Wistar rat, stomach; intravenous, 8 MBq, 120 min, group mean): 0.05 %ID/g
COCCCNC(=O)C1CCN(Cc2cc3ccccc3n2Cc2cccc(Cl)c2)CC1 — maximum response (Vero-E6; CellTiter-Glo ATP; 72 h, retest 8-point duplicates; relative to: DMSO 0%, hyamine -100%, more negative, more toxic): -9.06%
O=C1c2c(O)c(=O)ccn2N([C@@H]2c3ccccc3SCc3c2ccc(F)c3F)[C@@H]2COCCN12 — trough concentration (BALB/c mouse; subcutaneous, 8 mg/kg q24h): 9.52 ng/mL
Cc1ccc(C)c(Nc2cc(C(=O)NCCCN(C)C3CCCCC3)c3ccccc3n2)c1 — maximum response (Vero-E6; CellTiter-Glo ATP; 72 h, retest 8-point duplicates; relative to: DMSO 0%, hyamine -100%, more negative, more toxic): -45.1%
O=c1ccc2ccccc2o1 — point of departure (HepaRG 3D spheroids; DNA structure; 24 h, high-content imaging): 653 µM
CC(C)C[C@@H](N)C(=O)N[C@H](CC(C)C)C(=O)N[C@H](Cc1ccccc1)C(=O)N[C@H](Cc1ccccc1)C(=O)N[C@H](C)C(=O)N[C@H](CCC(=O)O)C(N)=O — viability (NGF-differentiated PC-12 neurons; 20 µM, 24 h; relative to: untreated): 98.3%
CC[C@H](C)[C@@H]1NC(=O)[C@@H]2CCCN2C(=O)[C@H](CC(C)C)NC(=O)[C@H](CC(C)C)NC(=O)CNC(=O)[C@@H](NC(=O)[C@@H](NC(=O)[C@H](CC(=O)O)NC(=O)CNC(=O)[C@@H](NC(=O)[C@H](C)NC(=O)CNC(=O)[C@H](CCCCN)NC(=O)[C@H](CC(C)C)NC(=O)[C@H](CC(C)C)NC(=O)[C@H](CCCCN)NC(=O)CNC(=O)[C@@H](NC(=O)[C@@H](N)CC(C)C)C(C)C)C(C)C)C(C)C)CSSC[C@@H](C(=O)O)NC1=O — log2 fold change (RNA-seq, refers to: Smtnl2; mouse, traumatic brain injury model, frontal cortex and hippocampus; dose not given; relative to: TBI alone): -1.85
COc1cc(Nc2ncc(F)c(Nc3ccc4c(n3)NC(=O)C(C)(C)O4)n2)cc(OC)c1OC — IC50 (AKR1B1 (Homo sapiens, UniProt P15121)): > 10 µM
CC(C)C[C@@H](N)C(=O)N1CCC[C@@H]1C(=O)N[C@H](Cc1ccccc1)C(=O)N[C@H](Cc1ccccc1)C(=O)N[C@H](C)C(N)=O — viability (NGF-differentiated PC-12 neurons; 20 µM, 24 h; relative to: untreated): 100%
CCCCN(CCCNC(=O)c1cc(Nc2cccc(SC)c2)nc2ccccc12)Cc1ccccc1 — cytotoxicity efficacy (Vero-E6; CellTiter-Glo ATP; concentration not given, 72 h, second round 5-point; relative to: DMSO 0%, hyamine -100%, more negative, more toxic): -10.3%
Clc1ccc(-c2nn3c(Cn4cnc5ccccc54)nnc3s2)cc1 — CC50 (HEp-2; cytotoxicity): > 100 µM
CC[C@H](C)[C@H](NC(=O)[C@H](Cc1ccccc1)NC(=O)[C@H](CCC(=O)O)NC(=O)[C@H](CCCNC(=N)N)NC(=O)[C@H](C)NC(=O)[C@H](C)NC(=O)[C@H](CCC(N)=O)NC(=O)[C@H](CCC(=O)O)NC(=O)[C@H](CCC(=O)O)NC(=O)[C@H](CC(C)C)NC(=O)[C@H](Cc1ccc(O)cc1)NC(=O)[C@H](CO)NC(=O)[C@H](CO)NC(=O)[C@@H](NC(=O)[C@H](CC(=O)O)NC(=O)[C@H](CO)NC(=O)[C@@H](NC(=O)[C@H](Cc1ccccc1)NC(=O)[C@@H](NC(=O)CNC(=O)[C@H](CCC(=O)O)NC(=O)[C@H](C)NC(=O)CCc1c[nH]cn1)[C@@H](C)O)[C@@H](C)O)C(C)C)C(=O)N[C@@H](C)C(=O)N[C@@H](Cc1c[nH]c2ccccc12)C(=O)N[C@@H](CC(C)C)C(=O)N[C@H](C(=O)N[C@@H](CCCNC(=N)N)C(=O)NCC(=O)N[C@@H](CCCNC(=N)N)C(=O)N[C@@H](CCCCNC(=O)COCCOCCNC(=O)COCCOCCNC(=O)CC[C@H](NC(=O)CCCCCCCCCCCCCCCCC(=O)O)C(=O)O)C(=O)NCC(=O)NCC(=O)N[C@@H](CO)C(=O)N[C@@H](CCCCNc1c(NCCCCCN(O)C(=O)CCC(=O)NCCCCCN(O)C(=O)CCC(=O)NCCCCCN(O)C(C)=O)c(=O)c1=O)C(=O)O)C(C)C [zirconium-89 labelled] — tissue uptake (rat, intestine; iv, 3 nmol/kg, 24 h, ex vivo): 0.19 %ID/g
CO[C@H]1C[C@@H]2CC[C@@H](C)[C@@](O)(O2)C(=O)C(=O)N2CCCC[C@H]2C(=O)O[C@H]([C@H](C)C[C@@H]2CC[C@@H](OC(=O)NCCOCCOCCOCCOCCOCCOCCOCCOCCC(=O)N3CCc4cc(Cn5nc(-c6ccc7oc(N)nc7c6)c6c(N)ncnc65)ccc4C3)[C@H](OC)C2)C[C@@H](O)[C@H](C)/C=C(\C)[C@@H](O)[C@@H](OC)C(=O)[C@H](C)C[C@H](C)/C=C/C=C/C=C/1C — TRAE incidence (phase 1 dose escalation, refers to: nausea; advanced solid tumour patients; intravenous, 10 mg weekly, any grade): 50%
CCCCCCCCC[C@@H]1CC(=O)NCC(=O)N[C@H](Cc2ccc(O)cc2)C(=O)NCC(=O)N[C@@H](Cc2ccccc2)C(=O)O1 — soluble TLR2 level (BV-2 mouse microglia; ELISA; culture supernatant; 5 µM, together with: LPS): increased
CC(C)C[C@@H](N)C(=O)N[C@H](CC(C)C)C(=O)N[C@H](Cc1ccccc1)C(=O)N[C@H](Cc1ccccc1)C(=O)N[C@H](C)C(N)=O — viability (NGF-differentiated PC-12 neurons; 80 µM, 24 h; relative to: untreated): 75.8%
CC(C)(C)NCc1ccc(Nc2ccnc3cc(Cl)ccc23)cc1O — cytotoxicity efficacy (Vero-E6; CellTiter-Glo ATP; concentration not given, 72 h, second round 5-point; relative to: DMSO 0%, hyamine -100%, more negative, more toxic): -17.8%
CC(C)C[C@@H](NC(=O)[C@H](N)CCCCN)C(=O)N[C@H](CC(C)C)C(=O)N[C@H](Cc1ccccc1)C(N)=O — viability (NGF-differentiated PC-12 neurons; 80 µM, 24 h; relative to: untreated): 96.5%
O=C(c1ccc(Cl)cc1)N1CCN2C(=O)N(OC(=O)N3CCOc4ccccc43)C(=O)C2C1 (stereo not shown) — median protein ratio (Fatty acid synthase (FASN, Homo sapiens, UniProt P49327); MS-based ABPP; SW-620 conditioned medium; 10 µM, 1 h, 37 °C; relative to: compound over DMSO, lower = more inhibition): 0.98
COc1ccccc1-c1cccc(CN2CCCC(C(=O)NCc3ccc(F)cc3)C2)c1 (stereo not shown) — cytotoxicity efficacy (Vero-E6; CellTiter-Glo ATP; concentration not given, 72 h, retest 8-point duplicates; relative to: DMSO 0%, hyamine -100%, more negative, more toxic): -29.9%
C[C@H]1CN(c2n[nH]c3nc(N[C@H]4CC[C@H](NS(=O)(=O)CCC(F)(F)F)CC4)ncc23)CCO1 — relative abundance (DDX20 (Homo sapiens, UniProt Q9UHI6); inhibitor, Kinobeads competition profiling; 0.16 µM; relative to: vehicle): 1.1
CC(C)C[C@@H](NC(=O)[C@H](N)CCCCN)C(=O)N[C@H](CC(C)C)C(=O)N[C@H](Cc1ccccc1)C(=O)N[C@H](Cc1ccccc1)C(N)=O — viability (NGF-differentiated PC-12 neurons; 80 µM, 24 h; relative to: untreated): 99%
Oc1ccc(C(c2ccc(O)cc2)(C(F)(F)F)C(F)(F)F)cc1 — viable cells (HepG2 spheroids, dissociated; annexin V-FITC/PI flow cytometry; 0.1 µM, 24 h): 70 ± 8.99%
O=S(=O)(c1ccc(-c2ccc3nccc(Nc4ccncn4)c3c2)cc1)N1CCOCC1 — TC50 (NIH 3T3; cytotoxicity, PrestoBlue; 96 h, 2% FBS): > 20 µM
C[n+]1cc2c3c(ccc2c2ccc4cc5c(cc4c21)OCO5)OCO3 — selectivity index (differentiated THP-1; 72 h; relative to: THP-1 CC50 over EC50): 15
CC(C)C[C@H](NC(=O)[C@H](C)NC(=O)[C@@H](NC(=O)[C@H](CCCNC(=N)N)NC(=O)[C@H](CC(C)C)NC(=O)[C@H](Cc1c[nH]c2ccccc12)NC(=O)[C@@H]1CCCN1C(=O)[C@@H](N)CCCCN)C(C)C)C(=O)N[C@@H](CS)C(=O)N1CCC[C@H]1C(=O)NCC(=O)O — viability (A549; WST-1; 256 µM, 24 h): 96.4% and 88.7% and 100%
CC(C)C[C@@H](N)C(=O)N1CCC[C@@H]1C(=O)N[C@H](Cc1ccccc1)C(=O)N[C@H](Cc1ccccc1)C(=O)N[C@H](C)C(=O)N[C@H](CCC(=O)O)C(N)=O — viability (NGF-differentiated PC-12 neurons; 20 µM, 24 h; relative to: untreated): 99%
COc1cc2c(Oc3ccc4[nH]c(C)cc4c3F)ccnc2cc1OCC1(N)CC1 — QTc prolongation incidence (paediatric refractory sarcoma patients; 12 mg): 9.1%

Some of these lines once more:
COc1cc(Nc2ncc(F)c(Nc3ccc4c(n3)NC(=O)C(C)(C)O4)n2)cc(OC)c1OC — IC50 (AKR1B1 (Homo sapiens, UniProt P15121)): > 10 µM
CC(C)C[C@@H](N)C(=O)N1CCC[C@@H]1C(=O)N[C@H](Cc1ccccc1)C(=O)N[C@H](Cc1ccccc1)C(=O)N[C@H](C)C(N)=O — viability (NGF-differentiated PC-12 neurons; 20 µM, 24 h; relative to: untreated): 100%
CCCCN(CCCNC(=O)c1cc(Nc2cccc(SC)c2)nc2ccccc12)Cc1ccccc1 — cytotoxicity efficacy (Vero-E6; CellTiter-Glo ATP; concentration not given, 72 h, second round 5-point; relative to: DMSO 0%, hyamine -100%, more negative, more toxic): -10.3%
Clc1ccc(-c2nn3c(Cn4cnc5ccccc54)nnc3s2)cc1 — CC50 (HEp-2; cytotoxicity): > 100 µM
